Results collected from several papers.
Each numbered part is a random draw from the data of one study; scales do not carry over between parts. Values joined by “and” are separate records of one study, mostly repeats; a detail may differ. Converted amounts (≈) assume the structure as drawn.
Sequence of UniProt Q96SW2 (whole entry, looked up): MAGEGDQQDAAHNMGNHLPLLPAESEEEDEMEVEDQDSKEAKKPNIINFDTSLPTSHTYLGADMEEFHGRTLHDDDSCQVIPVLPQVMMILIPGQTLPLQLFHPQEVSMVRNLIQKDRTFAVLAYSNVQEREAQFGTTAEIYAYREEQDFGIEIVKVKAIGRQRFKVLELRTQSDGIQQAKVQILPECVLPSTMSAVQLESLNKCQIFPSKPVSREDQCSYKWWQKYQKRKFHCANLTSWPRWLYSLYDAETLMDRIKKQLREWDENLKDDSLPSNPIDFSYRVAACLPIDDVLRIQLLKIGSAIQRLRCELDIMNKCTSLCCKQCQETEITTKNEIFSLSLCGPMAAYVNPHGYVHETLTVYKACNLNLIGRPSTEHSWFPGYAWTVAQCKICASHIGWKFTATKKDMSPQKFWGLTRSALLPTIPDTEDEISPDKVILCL

Block 1 — endpoint: MRT(0-inf)
Compound: Cn1cc(-c2cccc(CN3CCC4(CC3)COc3c4ccc4c3CN([C@H]3CCC(=O)NC3=O)C4=O)c2)cn1
rat, plasma; intravenous, 1.02 mg/kg: 2.41 h
rat; intravenous, 1 mg/kg: 2.4 h and 2.43 h and 2.41 h
cynomolgus monkey, plasma; oral, 3.02 mg/kg: 13.6 h
cynomolgus monkey; intravenous, 1 mg/kg: 9.15 h and 6.68 h and 7.19 h
rat, plasma; oral, 2.98 mg/kg, group mean: 4.9 h
cynomolgus monkey; oral, 3 mg/kg: 14.9 h and 14.1 h and 12 h
rat; oral, 3 mg/kg: 4.07 h and 5.49 h and 5.15 h
cynomolgus monkey, plasma; intravenous, 1 mg/kg: 7.67 h

Block 2 — cell line: L929; technique: CCK-8; endpoint: viability
SMILES: Cc1c(NC(=O)c2cccn(-c3ccc(F)cc3)c2=O)ccc(Oc2ccnc(NC(=O)C3CC3)c2)c1C
50 µM: 71.4% and 71.9% and 70.7% and 71.7%
necroptosis protection; 5 µM, with: TNF-α-induced: 78.2%
50 µM, with: zVAD: 72.2% and 75.1% and 73.5% and 70.5% and 73.1%

Block 3 — organism: Staphylococcus aureus; strain: USA300; endpoint: MIC
Compound: CCCCC[C@@H]1CC(=O)N[C@@H](C(C)C)C(=O)N[C@H](CCCNC(=N)N)C(=O)N[C@@H](CO)C(=O)NCC(=O)N(C)[C@H](Cc2ccccc2)C(=O)N[C@@H](CC(C)C)C(=O)N[C@H](CCCNC(=N)N)C(=O)N[C@@H](CC(N)=O)C(=O)N[C@H](C(C)C)C(=O)N[C@H](Cc2c[nH]c3ccccc23)C(=O)NCCCC(=O)O1
with: menaquinone 0.125 µg/mL: 8 µg/mL (≈ 5.49 µM)
with: ubiquinone 16 µg/mL: 4 µg/mL (≈ 2.75 µM)
with: menaquinone 0.5 µg/mL: 8 µg/mL (≈ 5.49 µM)

Mixed results
O=C1CC[C@H](Nc2ccc(N3CCNCC3)c(F)c2)C(=O)N1
inhibition (Protein cereblon (CRBN, Homo sapiens, UniProt Q96SW2); binding; 1111.11 nM): 72.3% and 77.1%

CC(C)OC(=O)[C@H](CCC(=O)C=[N+]=[N-])NC(=O)[C@H](Cc1c[nH]c2ccccc12)NC(=O)C12CCN(CC1)CC2
remaining compound (CES1-/- mouse GI tissue homogenate; 60 min): 1%

Some of these lines once more (block 2):
necroptosis protection; 5 µM, with: TNF-α-induced: 78.2%
50 µM, with: zVAD: 72.2% and 75.1% and 73.5% and 70.5% and 73.1%
